Published values pooled from the literature.
A part holds a random share of what one study measured.

Sample 1
Target: Fragile X messenger ribonucleoprotein 1, C-terminal low-complexity region (Fmr1, Mus musculus, UniProt P35922)
Method: RNA Bind-n-Seq
Form: RNA
Matrix: in vitro
Concentration: 200 nM
Setting: whole 134-nt RNA, ends assumed
With: 150 mM KCl
Relative to: input library
Direction: higher = stronger binding
Shared flanks, not repeated: GGGAGUUCUACAGUCCGACGAUC … UGGAAUUCUCGGGUGUCAAGG
Oligonucleotide | log2 enrichment
AAGUCCUGUGCUACACAUCGUAUGUACCGAAUCAAAUUUUUAAACCCAAAUUUAAAAAAGUAUUAUGUUACGCCGUUCGGAUCUGCACUU | -0.216
UGGCCCUGGUGGCAUGCGGGGAGGAAGAGGUGGCCUCAUGGAUCGUGGUGGUCCCGGUGGAAUGUUAAGAGGUGGCCGUGGUGGAGACAG | 0.0164
AGUCCUGUGCUACACAUCGUAUGUACCGAAUCGGGAGGGUUUUUUUGGGAAAAAGGGAAAGUAUUAUGUUACGCCGUUCGGAUCUGCACU | 0.0997
CUGUGCUACACAUCGUAUGUACCGAAUCGGGUUUUUUUGGGAAAAAAAGGGAAAAAAAGGGAAAGUAUUAUGUUACGCCGUUCGGAUCUG | -1.59
CAAGUCCUGUGCUACACAUCGUAUGUACCGAAUCGGUUUUUGGUUUUUGGAAAGGAAAGUAUUAUGUUACGCCGUUCGGAUCUGCACUUC | -0.761
AGUGGGUUUGUUGAAGCAGUUGCUGGUGCAACAGCUAGGUUUGACUGAGAAGAGCGUUCAGGAAGACUGGCAACAUUUCCCAAGAUACAG | -1.78
CCUGUGCUACACAUCGUAUGUACCGAAUCGGGGAAAAAAAGGGGUUUUUGGGGAAAGGGGAAAGUAUUAUGUUACGCCGUUCGGAUCUGC | 0.378
AGUCCUGUGCUACACAUCGUAUGUACCGAAUCAAACCCCCAAAUUUAAAUUUUUAAAAAAGUAUUAUGUUACGCCGUUCGGAUCUGCACU | 0.0809
GUCCUGUGCUACACAUCGUAUGUACCGAAUCAAAUUUUUAAACCCCCCCAAAUUUAAAAAAGUAUUAUGUUACGCCGUUCGGAUCUGCAC | 0.219
AAGUCCUGUGCUACACAUCGUAUGUACCGAAUCGGUUUUGGGGUUUUGGGUUUUGGAAAGUAUUAUGUUACGCCGUUCGGAUCUGCACUU | -0.366
UAACUUUAGAGGAGGAUCUGAUGGAUAUGGCAGUGGACGUGGAUUUGGGGAUGGCUAUAAUGGGUAUGGAGGAGGACCCGGAGGUGGCAA | 0.166
CCUGUGCUACACAUCGUAUGUACCGAAUCGGGGAAAGGGGAAAAAAAGGGGUUUUUGGGGAAAGUAUUAUGUUACGCCGUUCGGAUCUGC | 0.267
UCAAGUCCUGUGCUACACAUCGUAUGUACCGAAUCGGGUUUGGGAGGGUUUGGGAAAGUAUUAUGUUACGCCGUUCGGAUCUGCACUUCC | 1.24
AGUCCUGUGCUACACAUCGUAUGUACCGAAUCGGGGAAAAAGGAAAAAGGAAAAAGGGAAAGUAUUAUGUUACGCCGUUCGGAUCUGCAC | -0.403

Sample 2
Target: PABPC1L2, full length, GST fusion (mouse, UniProt A0ABA7IW68)
Method: RNAcompete
Form: RNA
Matrix: in vitro
Concentration: 20 nM
Setting: 7-mer, probes averaged, single round
Relative to: mean of 7-mers
Direction: higher = stronger binding
Residues (chain): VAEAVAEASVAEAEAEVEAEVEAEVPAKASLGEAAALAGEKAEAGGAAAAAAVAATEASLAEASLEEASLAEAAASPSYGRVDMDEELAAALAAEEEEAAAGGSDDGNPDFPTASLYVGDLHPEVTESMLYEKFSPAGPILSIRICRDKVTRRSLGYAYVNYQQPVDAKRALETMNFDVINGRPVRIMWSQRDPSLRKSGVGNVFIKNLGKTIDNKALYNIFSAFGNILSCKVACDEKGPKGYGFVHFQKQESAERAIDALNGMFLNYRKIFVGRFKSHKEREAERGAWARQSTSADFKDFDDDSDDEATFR
Oligonucleotide | 7-mer Z-score
CUAUCGG | -0.0881
CGGAAAG | 0.102
UGGGAGU | -0.0627
GUCCGUC | -0.331
AUAAGAA | 0.483
ACCCUUU | -0.208
CCGCCAA | -0.325
GAACCAA | 0.169
GCUAGAG | -0.0464
GAGCCAG | -0.0881
GAAGUCA | -0.233
AAGGCCC | -0.0391
UCCAGUA | -0.0808
UCAUGGC | 0.0297
UACGCGC | -0.262
CGUACUA | -0.278
CGCUCGA | -0.249
GUGGCCU | 0.0932

Sample 3
Target: Interferon regulatory factor 3, full length, phosphomimetic (IRF3, Homo sapiens, UniProt Q14653, residues 1-427, S386D/S396D/S398D/S402D/T404D/S405D)
Method: protein-binding microarray
Form: double-stranded DNA, one strand shown
Matrix: in vitro
Concentration: 2540 nM top
Setting: 60-bp whole probe
With: salmon DNA 0.4 mg/ml
Relative to: random background probes
Direction: higher = stronger binding
Shared flanks, not repeated: GCCTAGCAC … GTCTTGATTCGCTTGACGCTGCTG
Residues (chain): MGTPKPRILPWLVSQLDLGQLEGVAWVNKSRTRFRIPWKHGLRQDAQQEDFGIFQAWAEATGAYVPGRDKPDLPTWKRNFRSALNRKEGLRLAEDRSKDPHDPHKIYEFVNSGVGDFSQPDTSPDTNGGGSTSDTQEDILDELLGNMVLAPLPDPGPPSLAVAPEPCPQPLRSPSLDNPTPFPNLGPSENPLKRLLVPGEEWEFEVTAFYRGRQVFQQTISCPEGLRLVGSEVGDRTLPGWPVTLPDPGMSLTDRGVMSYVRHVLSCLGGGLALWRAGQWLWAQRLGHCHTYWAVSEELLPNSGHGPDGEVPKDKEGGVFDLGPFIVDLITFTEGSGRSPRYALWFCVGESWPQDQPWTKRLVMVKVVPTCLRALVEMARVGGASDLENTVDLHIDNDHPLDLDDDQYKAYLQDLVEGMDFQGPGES
Oligonucleotide | fitted relative affinity
TCAAATGACCTTCTCAGACTGTGCTAG | 0.683 z-score
TTAGGTCTCGGACCGGGTTAGTGCTAG | -0.436 z-score
GCACATGAGCCAAGCCTGCCGTGCTAG | -0.591 z-score
TTAGGTATCGGTTTAGGTTAGTGCTAG | 5.66 z-score
TTAGGTATCGGGTATCGGTAAGTGCTA | 1.81 z-score
GACGAACTGAGTATCGAAACGTGCTAG | 0.633 z-score
TCAATTTTAACCCTTATACTGTGCTAG | 0.831 z-score
TTAGAACTGAGTCTCGATCAGTGCTAG | -0.466 z-score
TTGGGACTGGGTATCGGTTAGTGCTAG | 0.045 z-score
TGCCATATTTATCTGCAAAGGTGCTAG | 0.121 z-score
TCATTTCTACTGTCTGTTACTGTGCTA | 1.92 z-score
GACGATTCCAGTTTCGAGAGGTGCTAG | 2.51 z-score
AGAAATTTTTTTTCTAACTAGTGCTAG | 0.789 z-score
TCACTTTCCTTTATGTCACTGTGCTAG | 7.98 z-score
AATTTTGTCATCTATAATGGAGTGCTA | 0.761 z-score
GAGGGTATCGGGTATCGGGACGTGCTA | 0.598 z-score
TCAGATCTCAGTATCGATTAGTGCTAG | 1.74 z-score
GACGGTCTCGGTATCGGTACGTGCTAG | 2.5 z-score
TTAGATTTCGGGTATCGAATAGTGCTA | 1.6 z-score
GGCGGTATCGGACTGGGGACGTGCTAG | 1.41 z-score
GTGACTCTGAACCTTCAGCTCGTGCTA | -0.447 z-score
GACGGTCTCGGACTAGGGACGTGCTAG | 0.344 z-score
TTAGGACTGGCGTATCGGTTAGTGCTA | 0.266 z-score
GACGGTTTCGAGTATCGGGACGTGCTA | 3.44 z-score
TCATTTATGCTTTCTTTAACTGTGCTA | 1.7 z-score

Sample 4
Target: RNA binding protein fox-1 homolog 2, RRM domain, GST-SBP tag (RBFOX2, Homo sapiens, UniProt O43251-10, residues 100-194)
Method: RNA Bind-n-Seq
Form: RNA
Matrix: in vitro
Concentration: 365 nM
Setting: natural RNA segment, single round, ends assumed
Relative to: no-protein control
Direction: higher = stronger binding
Shared flanks, not repeated: GGGAGUUCUACAGUCCGACGAUC … UGGAAUUCUCGGGUGCCAA
Target sequence (chain): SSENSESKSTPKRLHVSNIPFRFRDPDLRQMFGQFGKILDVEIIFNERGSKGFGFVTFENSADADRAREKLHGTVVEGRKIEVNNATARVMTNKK
Oligonucleotide | RBNS enrichment (R)
UCCACCAGUGCAUGGCAGUGCCCAUGCAUGCCGGCAUAUUCAGCAGCUGUCACCUUACUCCCAUCCCAGGAGGCCGUAAGGCCUCCCACCUCUCCCCUGUGACUGCAGCU | 0.427
UGGCGUGACUGACGGCUGAGGCCUGCCUCUCCUUCCCAAGCCCCCUUCCUUCAUCCUUGGGGGUCUCAGGCUGCCCCCAUCAUGGGGGUCUGGGCCCUGCCCACCCUCCU | 0.242
UAAAUCACUGGUGAAAGUGGCAUCAUCAGAUAAUCUCAAUGGCCACUUGUUCUGGCAUUUAUAAAUAGAAAGGACUGUGAGCUGUGGGCUAUGGUCUAAUGUUCAAAGAU | 0.558
AGUUGGAAUUCUCCCACUGCCCUAAAACUUUCCCUAGUAGUCCUUUAAACUCCCCCCUCCCUUUUUGGUAGCUGUUUUCUCCGUCCUCUCUCCACCUGCCCUCUUAUCUA | 2.15
ACAGCUACCCCCAUAUUCAAAAAUAGUUCUUUUCCCUGUAGGGAAACAGGUAGCUCUCCAUAAGGAAAUUAUCAUGAGUGUGUUCUCCCAUCAGUGCACUUCUCCCAGGG | 0.348
AGAGUGCCAACCAAGCCUUCCUGGGCUUUACAUAUGUGGCACCUUCUGUCCUGGACAGCAUCAAAGAGGGCUUCUCCUUCCAGCCCAAGCUGCGUUCUCCCAGACGCCUU | 0.943
UCUCAGCCAACCCGCUCCACUACCCGGCAGGGUACACAUUCGCACCCCUACUUCACAGAGGAAGAAACCUGGAACCAGAGGGGGCGUGCCUGCCAAGCUCACACAGCAGG | 0.579
CUUCAACUGUUUGAAAUAAUGCUCUCUGGGAGGCCAACAUUCCAAGAAUGUAUGAAGAACUGAAACCCUACCAUUUUUAUUCUUCUUUUACAUUAAAUUGUUGAGAACAG | 0.357
UUAGACACUACAGUACUAAGACAAUGUUAAAUAUAUUAUUUGCCUCUAUAACAACUUAAUGUAUUAAGUUCUGACUGUGCUUCAUAUCAUGUACCUCUCUAGUGAAGUAG | 0.342
ACACGAUGAUGUGGUCUGCUUGCUCUCUGCUUAGACAGGCUUUAAGACCAAUUGGAUUUUCAUGGAGGCCAGGACAGAGAGUGGUAAUUGAUGGCUUGUGUACAGACAAG | 1.18
CUAGCUACCAGUGCCUCCCAAUGCUUAGUGCACAGUACUGUAGACUGGCCAUCACCCCUCUCCUUGGAAAAUGCCACUGUGCUGUUUGAAAAAAAGCAGCCUUUUAGGGC | 0.744
UAAGAAUCCUGCUGCUCUGGGGGAGGCGGAAGGAGAGCUGGAAAGUCUGGAGUAUCGCUCCGUUCCCUGGCAGAAGGUUCCAGCCAGGAGGAUGUGCUGAAGAUGGUCUG | 1.26

Sample 5
Target: Hepatocyte nuclear factor 3-beta, forkhead domain (FOXA2, Homo sapiens, UniProt Q9Y261, residues 142-269)
Method: protein-binding microarray
Form: double-stranded DNA, one strand shown
Matrix: in vitro
Concentration: not given
Setting: k-mer, scored over probes, only values ≥0.25
Direction: higher = stronger binding
Target sequence (chain): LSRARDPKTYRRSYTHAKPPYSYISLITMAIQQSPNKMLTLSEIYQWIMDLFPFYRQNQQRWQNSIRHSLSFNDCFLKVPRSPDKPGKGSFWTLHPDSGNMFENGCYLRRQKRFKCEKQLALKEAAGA
Oligonucleotide | E-score
AACAGAAA | 0.289
CCAACATA | 0.314
ACAGAAAC | 0.273
GTATCATA | 0.356
AGTAATAT | 0.25
AACCATTA | 0.301
ACGTAATA | 0.303
ATATACCA | 0.312
GATGAATA | 0.332
ACACGACA | 0.257
AAACTAAC | 0.253
TACACCTA | 0.288
ATATCTCA | 0.331

Repeated from above (sample 3):
Oligonucleotide | fitted relative affinity
TTAGGTCTCGGACCGGGTTAGTGCTAG | -0.436 z-score
TCACTTTCCTTTATGTCACTGTGCTAG | 7.98 z-score
TCATTTCTACTGTCTGTTACTGTGCTA | 1.92 z-score
GGCGGTATCGGACTGGGGACGTGCTAG | 1.41 z-score
TTGGGACTGGGTATCGGTTAGTGCTAG | 0.045 z-score
TTAGATTTCGGGTATCGAATAGTGCTA | 1.6 z-score
TTAGAACTGAGTCTCGATCAGTGCTAG | -0.466 z-score
GACGGTCTCGGACTAGGGACGTGCTAG | 0.344 z-score
TTAGGACTGGCGTATCGGTTAGTGCTA | 0.266 z-score
TTAGGTATCGGGTATCGGTAAGTGCTA | 1.81 z-score
TGCCATATTTATCTGCAAAGGTGCTAG | 0.121 z-score
GTGACTCTGAACCTTCAGCTCGTGCTA | -0.447 z-score
